Experimental data from different studies.
Numbered parts are unrelated; each lists some results of a single study.

Set 1
Target: Centromere-binding protein 1, full length, His-tagged (CBF1, Saccharomyces cerevisiae, UniProt P17106, residues 1-351)
UniProt P17106, sequence (whole entry, looked up): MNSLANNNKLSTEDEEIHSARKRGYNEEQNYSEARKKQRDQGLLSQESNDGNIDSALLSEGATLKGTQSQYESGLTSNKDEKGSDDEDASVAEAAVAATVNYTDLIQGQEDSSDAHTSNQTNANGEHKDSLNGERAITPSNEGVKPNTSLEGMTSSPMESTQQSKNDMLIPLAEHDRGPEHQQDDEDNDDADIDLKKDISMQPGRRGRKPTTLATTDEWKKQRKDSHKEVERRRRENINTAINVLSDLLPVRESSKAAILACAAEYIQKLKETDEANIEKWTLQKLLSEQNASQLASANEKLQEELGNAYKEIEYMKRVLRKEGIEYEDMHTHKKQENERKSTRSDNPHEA
Method: competition protein-binding microarray
Molecule type: double-stranded DNA, one strand shown
Matrix: in vitro
Concentration: 2 µM
Notes: whole 60-bp probe, lowest competitor level
With: Pho4 competitor, 0.05 µM
Direction: higher = stronger binding
Constant ends, left off below: … GTCTTGATTCGCTTGACGCTGCTG
Sequence	fluorescence intensity [a.u.]
CCTTAATAGGCGAGTCACGTGGAATGGTAGAACCGA	5300
AAAGGTTATATCCATCACGTGACGGATCTGTAAAAG	13600
AAGAGTATTATACAGCACGCAGCAGAACAGTTATAC	76.2
AGCAGGATTTATAGGCGCGTGCGGACAGCCTTAGAC	100
CCAAAGCCGCCTGAACGCGTGTTTTTGCTGTTGTTT	79.3
GTAACGATTTACCATCACGTGGATTGTGATATAATT	3220
AGCATTGGATCTCTAAATTAAATGCGTTAAACAGGG	80
AAGTTTTTGTATGAGCATGTGACAGTAAATGCGAAC	2010
CTTTCCCGATCTTGGCGTGTGGGTGTAGCACATTTG	72.5
TGTTGCAGTCGAATTCTCGTGGCCGTACGCAATTTC	78.6
CTTGTACTTCAATCTCACGTTTCTCCATATGAGTCT	135
AAAGCGGTAATTTGTTTTGTGGGTGCAGATATCTAT	83
TTTAGTAATAATAATGATTTAATTAATGATAGTATA	96.1
CTAACGAAGGTTTGAAGCGTGGGTGACAAGCCAAGT	63.4
TTGGCCGTATCTGATCTTGTGCAGGGAGTAACCACT	72.9
AGAGGGTAGCTTGCTGACATGCAGACCTCTCCCCGG	58.1
GACAGGAACTGCTGTCATATGAAAACCTAAAAATGT	92.5
TTATGAACTGCTACCCACGTGTAACCAATTTTTTTA	1190
GAAGCGTTGCCCTATGACGTGCAAAGTACCGATATT	68.9

Set 2
Target: RING finger protein unkempt homolog, zinc fingers 1-6, GST-SBP tag (UNK, Homo sapiens, UniProt Q9C0B0, residues 30-357)
Method: RNA Bind-n-Seq
Molecule type: RNA
Matrix: in vitro
Concentration: not given
Notes: RNA with constant flanks, human and mouse sites, ends assumed
Reference: input RNA pool
Direction: higher = stronger binding
Constant ends, left off below: GGGAGUUCUACAGUCCGACGAUC … CAACAGAGGAUUGAGCAUCA
Residues (chain): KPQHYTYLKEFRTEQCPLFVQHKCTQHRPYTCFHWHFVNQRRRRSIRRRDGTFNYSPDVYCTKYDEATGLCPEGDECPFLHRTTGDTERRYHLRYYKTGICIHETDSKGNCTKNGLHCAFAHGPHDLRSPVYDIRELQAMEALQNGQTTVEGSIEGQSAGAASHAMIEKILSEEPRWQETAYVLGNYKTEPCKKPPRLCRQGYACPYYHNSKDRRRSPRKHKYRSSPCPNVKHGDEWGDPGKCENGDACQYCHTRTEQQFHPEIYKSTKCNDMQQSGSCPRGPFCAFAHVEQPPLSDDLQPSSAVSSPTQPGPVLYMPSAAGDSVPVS
Sequence	bound/input enrichment [ratio]
CCUAUAGGACAGAGAGGCAGUGAGCAAGGCAAACGUGUGGAGAACAUUAAUGGAACCUCCUACCCUAGUCUACAGCAGAAAACCAAUGCUGUUAAGAAAUUACAUAAAUGUGAUGAAUGU	23.7
UUUUAUGCACCCACCGCAGCUGUUGAAAGCAUGGUGGAGCACUUGUCUCGAGAUAUAGAUGUGAUUAGAGGGAAUAUUGUCAAACACCCUCUGACCCAGGAACUAAAAGAAUGUGAAGGG	0.246
CUGGCUUCUUCAGGUUAUCGCACCACUAUGGAAUCCUUUGCAGAAUGGUACUCAUAUAAUGGUUUAAAACAACACAUUCAUAAUUGACUCUGUGCAGGAUGUCACUCAAUCAGUUUGGGU	0.0766
AGUUCUGCAAGAAUGGUUACUACAGUACCCCAUGUGUUUUCAAAACUGUUAGAAAUGCUGAGUGUUUCCAGUUCCACUCACUUCACCAGGAUGCGUCGCCGUUUGAUGGCUAUUGCAGAU	0.291
CCUUUUACAACAGAAUCUGCUUUUCAGAGAGAUGCCCUUUGCUUCUCAGAUGUAGUGCACCUUACGCUUAUUUUUCAACAGUGAAAAUGAGUCAUACAGAGGUUAAAUUAAAAAUACCUU	0.348
CAUAUCACUGAUGUGGUGCUGGACAAGGCCAAUAAAACACCACUUCGGCAACUGGAUCCCUCCAGACUACCUGGCAUAAACUGUGGCCCAGAUUUCACUCCAUCUUUUGCCAAUCUUGGC	0.0482
AGGACUUCAUUCCUCCAUGUUUUCUUCCCUUAUCUUACUGUCAUUGUCCUAAAACCUUAUUUUAGAAAAUUGAUCAAGUAACAUGUUGCAUGUGGCUUACUCUGGAUAUAUCUAAGCCCU	0.501
CAUGUAUUUGAGUGCAACUUAGAGAGCAGUGUGGAGAGCAUCAUCUCACCAAAGGUGAAGAUGGCGCUGCGGACGUCAGGACACCUUCUCCUGGGAGUAGUCCGCAUCUAUCACAGGAAA	0.184

Set 3
Target: RNA binding protein fox-1 homolog 2, RRM domain, GST-SBP tag (RBFOX2, Homo sapiens, UniProt O43251-10, residues 100-194)
Method: RNA Bind-n-Seq
Molecule type: RNA
Matrix: in vitro
Concentration: 365 nM
Notes: natural RNA segment, single round, ends assumed
Reference: no-protein control
Direction: higher = stronger binding
Constant ends, left off below: GGGAGUUCUACAGUCCGACGAUC … UGGAAUUCUCGGGUGCCAA
Target sequence (chain): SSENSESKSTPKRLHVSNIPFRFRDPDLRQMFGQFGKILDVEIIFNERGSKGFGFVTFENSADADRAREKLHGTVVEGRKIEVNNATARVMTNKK
Sequence	RBNS enrichment (R)
UUGCCUUAUGCUGAGGUCAAACUAAGGAUAAGCAAGCUUUUGUCCUUCAUUUUAACUGUUAUGUCAUACUGUUAUGUUGACAUAUUUCUUUAUAAGAGAAUAGAGGCAAA	1.07
CUGGCCAGCUUCAGCCUACAGCUUUAAAUUCUGUCUGCUCCUAAAUGGGUCCAAAGCUCAGUACUGGGGAGCCUGGGGUCCCCACUUGAAUGUGCAGCAGGAGGUCCUUU	0.449
ACGAUUACGGUCUUUAUGACCAAGAGUCUGAAAAUCUUUUUGUUAUGCUGUUUAGUAUUCGUUUGAUAUUGUUACUUUUCACCUGUUGAGCCCAAAUUCAGGAUUGGUUC	0.333
CCUAAUUGAAGAGUGGCAGAGGCUACUACAAAAAGCAACCUUUUCAUUUUCACUAAGAGUUUAAAAGCUAUUGUAUUAUUAAAAAGUCUUUACAAUGCUUGUUUCAAAGA	0.403
ACUGUCAGGACAGAUUGAGUUAACCCCUCAAGCCAAGUCCCGGGUGUCAGGAACAGUUGUCCAUGCUCAGAGCCCUCAAGCCAUCCUUGGCCACUCUCACUCCAGUGCCC	0.233
AAGUUGAGACUAUAAGAGUCAUAAAUAAGUCCUUGUGUUUCCUUAAUUUAUUUUGUUAACACCCCUAAUUACAACCAAAGUGAUGAUGUGGAGUCUUCUGUCUUCAUUUU	0.625
AUGAUUCUAUGUAAUGUAAACCAGAAAAAAUAAAUGUUCAUGAUUUCAAGAUGUUAUAUUAAAGAAAAACUUUAAAAAUUAUUAUAUAUUUAUAGCAAAGUUAUCUUAAA	1.56
CUAAGGCAGAUAGCCACCUUUACAUUGUGAGUGUGUUUACCUUGUCUAAUGACGGAUAAUUCCUUAACAUUUCUCUCCACCUUAGUACUUUAGGCUAAUUAUACACGUCU	0.368

Set 4
Target: Histone acetyltransferase KAT6A, winged helix 2, GST fusion (KAT6A, Homo sapiens, UniProt Q92794, residues 85-181)
Method: protein binding microarray
Molecule type: double-stranded DNA, one strand shown
Matrix: in vitro
Concentration: not given
Notes: 8-mer, flanks averaged, mean of 2 arrays, mostly near background
Reference: not given
Direction: higher = stronger binding
Residues (chain): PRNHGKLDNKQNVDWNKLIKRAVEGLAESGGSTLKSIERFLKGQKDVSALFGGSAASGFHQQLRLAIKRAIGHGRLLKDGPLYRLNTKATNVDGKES
Sequence	E-score
CCTTCGCC	0.0196
AGTGAAGC	0.0968
GCATCCCA	-0.0914
ACTGTGGA	-0.079
ACCAAATC	0.00071
CTAACCGC	0.0374
TGCCTCAA	0.0397
CGCTATGC	0.00625
CACTTTGA	-0.123
CAGTCTTA	-0.111
GATCGTGC	0.0395
ATTCTTTC	0.0929
TATAGTCA	0.0459
CAAGCGAA	0.0473
CAATCAAA	0.0603
GCAAGGCC	0.0208
CATTTCCG	-0.0713
GAGGAACC	0.12
GCCCTACA	-0.0495
AGCGGCCC	-0.0181
CCCGCGAG	0.186
ACTCCTGA	0.0701
CGCAGAAG	0.203
AGGAGCCT	-0.0686

A few entries again (set 2):
Sequence	bound/input enrichment [ratio]
CCUAUAGGACAGAGAGGCAGUGAGCAAGGCAAACGUGUGGAGAACAUUAAUGGAACCUCCUACCCUAGUCUACAGCAGAAAACCAAUGCUGUUAAGAAAUUACAUAAAUGUGAUGAAUGU	23.7
UUUUAUGCACCCACCGCAGCUGUUGAAAGCAUGGUGGAGCACUUGUCUCGAGAUAUAGAUGUGAUUAGAGGGAAUAUUGUCAAACACCCUCUGACCCAGGAACUAAAAGAAUGUGAAGGG	0.246
CUGGCUUCUUCAGGUUAUCGCACCACUAUGGAAUCCUUUGCAGAAUGGUACUCAUAUAAUGGUUUAAAACAACACAUUCAUAAUUGACUCUGUGCAGGAUGUCACUCAAUCAGUUUGGGU	0.0766
AGUUCUGCAAGAAUGGUUACUACAGUACCCCAUGUGUUUUCAAAACUGUUAGAAAUGCUGAGUGUUUCCAGUUCCACUCACUUCACCAGGAUGCGUCGCCGUUUGAUGGCUAUUGCAGAU	0.291
CCUUUUACAACAGAAUCUGCUUUUCAGAGAGAUGCCCUUUGCUUCUCAGAUGUAGUGCACCUUACGCUUAUUUUUCAACAGUGAAAAUGAGUCAUACAGAGGUUAAAUUAAAAAUACCUU	0.348
CAUAUCACUGAUGUGGUGCUGGACAAGGCCAAUAAAACACCACUUCGGCAACUGGAUCCCUCCAGACUACCUGGCAUAAACUGUGGCCCAGAUUUCACUCCAUCUUUUGCCAAUCUUGGC	0.0482
AGGACUUCAUUCCUCCAUGUUUUCUUCCCUUAUCUUACUGUCAUUGUCCUAAAACCUUAUUUUAGAAAAUUGAUCAAGUAACAUGUUGCAUGUGGCUUACUCUGGAUAUAUCUAAGCCCU	0.501
CAUGUAUUUGAGUGCAACUUAGAGAGCAGUGUGGAGAGCAUCAUCUCACCAAAGGUGAAGAUGGCGCUGCGGACGUCAGGACACCUUCUCCUGGGAGUAGUCCGCAUCUAUCACAGGAAA	0.184
